{"data": "Measured values of several laboratories", "note": "A part holds a random share of what one study measured.", "sequence of UniProt Q99640 (whole entry, looked up)": "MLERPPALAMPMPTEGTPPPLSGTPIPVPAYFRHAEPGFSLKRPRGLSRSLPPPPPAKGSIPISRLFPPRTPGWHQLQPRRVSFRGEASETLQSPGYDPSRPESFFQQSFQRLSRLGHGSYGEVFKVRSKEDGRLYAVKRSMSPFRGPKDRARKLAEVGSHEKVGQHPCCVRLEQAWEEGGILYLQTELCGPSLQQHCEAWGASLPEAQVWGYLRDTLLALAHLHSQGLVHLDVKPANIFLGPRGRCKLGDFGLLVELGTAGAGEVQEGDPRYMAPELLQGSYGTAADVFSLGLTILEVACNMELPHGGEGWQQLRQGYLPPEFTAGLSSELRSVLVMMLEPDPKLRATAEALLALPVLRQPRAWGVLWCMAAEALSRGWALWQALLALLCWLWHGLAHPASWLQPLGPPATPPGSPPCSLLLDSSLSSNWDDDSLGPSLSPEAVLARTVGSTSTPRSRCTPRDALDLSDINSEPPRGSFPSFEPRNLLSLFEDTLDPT", "sequence of UniProt Q8N752 (whole entry, looked up)": "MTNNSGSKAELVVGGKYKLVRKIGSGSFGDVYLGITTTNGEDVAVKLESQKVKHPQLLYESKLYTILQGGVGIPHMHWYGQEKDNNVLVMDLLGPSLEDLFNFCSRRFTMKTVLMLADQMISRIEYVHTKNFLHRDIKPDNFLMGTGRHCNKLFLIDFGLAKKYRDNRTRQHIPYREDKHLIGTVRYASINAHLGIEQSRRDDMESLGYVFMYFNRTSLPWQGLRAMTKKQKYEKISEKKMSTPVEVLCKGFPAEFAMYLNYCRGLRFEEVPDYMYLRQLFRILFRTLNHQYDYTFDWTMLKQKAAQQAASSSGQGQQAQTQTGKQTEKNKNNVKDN", "sequence of UniProt Q15418 (whole entry, looked up)": "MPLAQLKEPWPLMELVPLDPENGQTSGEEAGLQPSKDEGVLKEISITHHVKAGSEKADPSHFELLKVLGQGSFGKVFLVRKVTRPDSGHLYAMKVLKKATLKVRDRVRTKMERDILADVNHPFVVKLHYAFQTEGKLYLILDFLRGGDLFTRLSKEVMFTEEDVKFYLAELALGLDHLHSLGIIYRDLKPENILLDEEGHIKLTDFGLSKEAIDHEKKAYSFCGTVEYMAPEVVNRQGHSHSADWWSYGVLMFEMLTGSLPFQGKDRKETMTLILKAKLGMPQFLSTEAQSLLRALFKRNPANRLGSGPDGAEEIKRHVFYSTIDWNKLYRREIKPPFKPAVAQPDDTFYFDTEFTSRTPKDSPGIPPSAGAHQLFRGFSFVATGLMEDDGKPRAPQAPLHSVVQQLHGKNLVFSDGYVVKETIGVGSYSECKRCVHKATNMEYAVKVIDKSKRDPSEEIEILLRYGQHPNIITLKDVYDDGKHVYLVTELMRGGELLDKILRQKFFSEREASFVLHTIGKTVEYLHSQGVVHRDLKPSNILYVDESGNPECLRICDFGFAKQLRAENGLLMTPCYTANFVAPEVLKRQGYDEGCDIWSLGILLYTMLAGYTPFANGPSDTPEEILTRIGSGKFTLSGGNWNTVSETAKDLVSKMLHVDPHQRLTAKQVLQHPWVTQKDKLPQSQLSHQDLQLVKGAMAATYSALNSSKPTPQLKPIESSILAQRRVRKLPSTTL", "sequence of UniProt Q15831 (whole entry, looked up)": "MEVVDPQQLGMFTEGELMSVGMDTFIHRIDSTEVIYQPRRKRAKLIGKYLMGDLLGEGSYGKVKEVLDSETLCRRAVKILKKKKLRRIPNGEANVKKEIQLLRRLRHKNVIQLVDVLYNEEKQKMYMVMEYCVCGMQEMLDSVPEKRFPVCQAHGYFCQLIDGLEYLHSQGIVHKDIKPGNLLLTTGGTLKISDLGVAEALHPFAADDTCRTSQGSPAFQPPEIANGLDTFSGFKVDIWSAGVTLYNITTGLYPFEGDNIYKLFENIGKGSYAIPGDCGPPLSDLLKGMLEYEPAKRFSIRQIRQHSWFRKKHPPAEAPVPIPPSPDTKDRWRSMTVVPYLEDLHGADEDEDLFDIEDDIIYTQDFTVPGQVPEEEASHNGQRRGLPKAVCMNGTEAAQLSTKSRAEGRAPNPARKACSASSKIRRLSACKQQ", "sequence of UniProt Q6ZWH5 (whole entry, looked up)": "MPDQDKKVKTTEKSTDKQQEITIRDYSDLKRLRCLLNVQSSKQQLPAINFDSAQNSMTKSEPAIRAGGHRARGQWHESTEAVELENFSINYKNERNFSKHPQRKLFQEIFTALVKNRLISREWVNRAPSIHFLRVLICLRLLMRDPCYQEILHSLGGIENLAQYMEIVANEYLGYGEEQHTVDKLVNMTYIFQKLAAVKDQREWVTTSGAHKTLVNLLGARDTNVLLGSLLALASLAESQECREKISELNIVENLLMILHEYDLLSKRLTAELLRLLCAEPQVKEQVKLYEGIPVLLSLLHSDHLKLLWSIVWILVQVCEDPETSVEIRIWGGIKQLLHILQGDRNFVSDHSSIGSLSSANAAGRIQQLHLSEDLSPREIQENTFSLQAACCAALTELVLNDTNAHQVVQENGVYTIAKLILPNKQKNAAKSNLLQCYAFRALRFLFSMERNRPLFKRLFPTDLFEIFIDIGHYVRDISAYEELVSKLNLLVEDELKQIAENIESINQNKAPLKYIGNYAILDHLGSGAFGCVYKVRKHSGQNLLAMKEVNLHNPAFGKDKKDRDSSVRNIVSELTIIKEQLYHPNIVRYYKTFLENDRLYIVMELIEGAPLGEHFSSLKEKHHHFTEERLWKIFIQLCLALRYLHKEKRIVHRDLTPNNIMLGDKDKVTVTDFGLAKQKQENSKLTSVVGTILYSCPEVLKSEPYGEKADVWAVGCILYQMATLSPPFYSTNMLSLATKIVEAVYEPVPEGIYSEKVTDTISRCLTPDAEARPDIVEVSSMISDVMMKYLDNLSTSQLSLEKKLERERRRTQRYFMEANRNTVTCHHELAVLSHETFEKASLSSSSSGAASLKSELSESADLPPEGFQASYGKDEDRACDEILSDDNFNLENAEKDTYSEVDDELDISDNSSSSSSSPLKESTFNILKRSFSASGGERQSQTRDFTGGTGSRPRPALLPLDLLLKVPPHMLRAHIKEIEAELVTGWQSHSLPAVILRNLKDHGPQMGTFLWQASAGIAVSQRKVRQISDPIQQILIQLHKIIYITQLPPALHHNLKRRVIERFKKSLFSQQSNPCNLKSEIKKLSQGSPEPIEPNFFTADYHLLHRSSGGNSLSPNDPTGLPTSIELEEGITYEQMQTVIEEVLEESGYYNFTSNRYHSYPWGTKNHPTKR", "sequence of UniProt P42336 (whole entry, unmodified, looked up)": "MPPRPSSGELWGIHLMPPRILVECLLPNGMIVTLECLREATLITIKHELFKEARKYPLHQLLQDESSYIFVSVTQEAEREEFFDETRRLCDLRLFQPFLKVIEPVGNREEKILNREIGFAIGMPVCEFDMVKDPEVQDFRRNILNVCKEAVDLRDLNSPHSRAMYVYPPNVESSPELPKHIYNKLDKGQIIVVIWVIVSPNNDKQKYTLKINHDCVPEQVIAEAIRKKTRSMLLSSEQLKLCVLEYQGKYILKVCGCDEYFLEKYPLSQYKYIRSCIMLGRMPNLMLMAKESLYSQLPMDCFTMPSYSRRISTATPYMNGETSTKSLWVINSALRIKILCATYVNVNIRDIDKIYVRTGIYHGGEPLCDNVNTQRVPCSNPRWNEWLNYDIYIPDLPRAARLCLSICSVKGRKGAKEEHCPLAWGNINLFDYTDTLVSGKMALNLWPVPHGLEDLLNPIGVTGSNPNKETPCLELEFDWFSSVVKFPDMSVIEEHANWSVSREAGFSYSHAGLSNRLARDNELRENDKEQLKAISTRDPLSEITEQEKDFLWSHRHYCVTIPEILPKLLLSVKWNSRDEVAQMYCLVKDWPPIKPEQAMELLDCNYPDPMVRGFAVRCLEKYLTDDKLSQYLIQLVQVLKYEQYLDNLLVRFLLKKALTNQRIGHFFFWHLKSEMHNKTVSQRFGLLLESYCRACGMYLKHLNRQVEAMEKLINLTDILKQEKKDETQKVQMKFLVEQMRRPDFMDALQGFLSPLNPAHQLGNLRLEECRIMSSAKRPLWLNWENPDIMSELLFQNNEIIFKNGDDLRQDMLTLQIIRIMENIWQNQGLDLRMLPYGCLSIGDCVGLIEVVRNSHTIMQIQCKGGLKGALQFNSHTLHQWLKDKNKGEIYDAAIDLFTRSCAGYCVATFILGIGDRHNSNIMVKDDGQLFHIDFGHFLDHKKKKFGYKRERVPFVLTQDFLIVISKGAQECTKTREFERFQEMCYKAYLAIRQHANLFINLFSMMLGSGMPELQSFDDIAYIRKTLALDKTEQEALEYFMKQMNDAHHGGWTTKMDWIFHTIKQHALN", "sequence of UniProt Q14012 (whole entry, looked up)": "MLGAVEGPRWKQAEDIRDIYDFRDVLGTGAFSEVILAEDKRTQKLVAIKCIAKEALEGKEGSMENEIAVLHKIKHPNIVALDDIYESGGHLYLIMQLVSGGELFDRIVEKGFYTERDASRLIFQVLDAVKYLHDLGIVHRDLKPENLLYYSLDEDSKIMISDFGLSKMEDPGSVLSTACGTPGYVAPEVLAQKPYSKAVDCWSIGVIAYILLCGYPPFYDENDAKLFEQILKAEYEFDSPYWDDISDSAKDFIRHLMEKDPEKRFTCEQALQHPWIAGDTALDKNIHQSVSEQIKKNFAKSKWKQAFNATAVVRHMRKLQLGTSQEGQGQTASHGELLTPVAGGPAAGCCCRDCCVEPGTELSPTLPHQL"}
{"data": "Set 1", "species": "human", "medium": "microsomes or S9", "concentration": "2 µM", "time": "0.5 h"}
{"Compound": "O=c1cc(O)c2sc3nc(-c4cccs4)cc(-c4ccc(F)cc4)c3c2[nH]1", "remaining compound [%]": 93}
{"Compound": "CC(=O)c1c(Nc2ccc(C)cc2Cl)[nH]c2c(F)ccc(C)c2c1=O", "remaining compound [%]": 0.0642}
{"Compound": "CCCC(=O)c1c[nH]c2c(OCC)nccc2c1=O", "remaining compound [%]": 36.2}
{"Compound": "Cn1[nH]c(Br)c2/c(=N\\CCN)ncnc1-2", "remaining compound [%]": 49.2}
{"Compound": "CCOC(=O)C1CCN(Cc2nc(N)nc(Nc3ccc(C)cc3)n2)c2ccccc21 (centres unmarked)", "remaining compound [%]": 2.53}
{"Compound": "CCOC(=O)N1CCN(C(=O)c2cn(C)c(=O)cc2OC)CC1", "remaining compound [%]": 98.5}
{"Compound": "Cc1cc(C)c(S(=O)(=O)NCCc2cc3c(C)ccc(C)c3[nH]c2=O)c(C)c1", "remaining compound [%]": 3.49}
{"Compound": "NC(=O)COc1ccc(-c2nc(-c3ccccc3)no2)cc1", "remaining compound [%]": 65.5}
{"Compound": "CC(C)CCn1cc(C(=O)Nc2cccc3[nH]ccc23)c2ccccc2c1=O", "remaining compound [%]": 39.2}
{"data": "Set 2", "target": "Calcium/calmodulin-dependent protein kinase type 1D (CAMK1D, Homo sapiens, UniProt Q8IU85)", "read-out": "enzyme activity", "action": "inhibitor", "concentration": "0.5 µM", "baseline": "control", "sequence of UniProt Q8IU85 (whole entry, looked up)": "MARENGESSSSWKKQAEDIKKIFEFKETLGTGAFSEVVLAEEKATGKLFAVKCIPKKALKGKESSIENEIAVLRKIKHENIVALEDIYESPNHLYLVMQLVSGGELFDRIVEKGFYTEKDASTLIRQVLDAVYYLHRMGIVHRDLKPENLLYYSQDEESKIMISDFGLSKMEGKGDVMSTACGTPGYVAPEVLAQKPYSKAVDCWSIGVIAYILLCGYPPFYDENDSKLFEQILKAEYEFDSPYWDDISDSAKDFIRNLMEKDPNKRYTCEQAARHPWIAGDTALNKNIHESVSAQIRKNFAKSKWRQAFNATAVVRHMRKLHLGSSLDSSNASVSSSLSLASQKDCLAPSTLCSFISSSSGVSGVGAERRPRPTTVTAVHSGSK"}
{"SMILES": "c1ccc(-c2[nH]ncc2-c2ccnc3ccccc23)nc1", "remaining activity [%]": 100}
{"SMILES": "CCN(CC)C(=O)c1ccc(Nc2nc(OCC3CCCCC3)c3[nH]cnc3n2)cc1", "remaining activity [%]": 101}
{"SMILES": "CCN(CC)CCNC(=O)c1c(C)[nH]c(/C=C2\\C(=O)Nc3ccc(Cl)cc32)c1C", "remaining activity [%]": 60.2}
{"SMILES": "N#C/C(=C\\c1ccc(O)c(O)c1)C(=O)NCc1ccccc1", "remaining activity [%]": 96.4}
{"SMILES": "Cc1cn(-c2cc(NC(=O)c3ccc(C)c(Nc4nccc(-c5cccnc5)n4)c3)cc(C(F)(F)F)c2)cn1", "remaining activity [%]": 87.7}
{"SMILES": "Cn1nc2c3c(cccc31)C(=O)c1ccccc1-2", "remaining activity [%]": 70.3}
{"SMILES": "COc1cc2ncnc(Nc3ccc(O)c(Br)c3)c2cc1OC", "remaining activity [%]": 98.6}
{"SMILES": "COc1cc2c(cc1OC)-c1[nH]nc(Nc3cccc(F)c3)c1C2", "remaining activity [%]": 89.8}
{"SMILES": "Ic1cccc(CSc2nnc(-c3ccncc3)o2)c1", "remaining activity [%]": 101}
{"SMILES": "c1ccc(-c2cnc(Nc3ccc(OCCN4CCCC4)cc3)s2)cc1", "remaining activity [%]": 101}
{"SMILES": "CCOc1nc(NC(=O)Cc2cc(OC)ccc2OC)cc(N)c1C#N", "remaining activity [%]": 108}
{"SMILES": "O=C1C(Cl)=C(N2C(=O)CCC2=O)C(=O)c2ccccc21", "remaining activity [%]": 102}
{"SMILES": "COc1cc2ncnc(Nc3cccc(Cl)c3)c2cc1OC", "remaining activity [%]": 96.6}
{"SMILES": "Nc1cccc(-c2cc3c(Oc4cccc(O)c4)ncnc3[nH]2)c1", "remaining activity [%]": 97.7}
{"SMILES": "CN([C@@H](Cc1ccc(OS(=O)(=O)c2cccc3cnccc23)cc1)C(=O)N1CCN(c2ccccc2)CC1)S(=O)(=O)c1cccc2cnccc12", "remaining activity [%]": 101}
{"SMILES": "O=C(Nc1cccc(Nc2nccc(Nc3cccc(C(F)(F)F)c3)n2)c1)C1CC1", "remaining activity [%]": 100}
{"SMILES": "CN(C)C[C@H]1CCn2c(c(C3=C(c4cn(C)c5ccccc45)C(=O)NC3=O)c3ccccc32)C1", "remaining activity [%]": 101}
{"SMILES": "Cc1cc2ncc(-c3ccccc3)nc2cc1C", "remaining activity [%]": 100}
{"SMILES": "Cc1nc2cc3nc(-c4cccs4)cnc3cc2n1C", "remaining activity [%]": 107}
{"SMILES": "N#Cc1c(NC(=O)c2cccc3ccccc23)sc2c1CCCC2", "remaining activity [%]": 120}
{"data": "Set 3", "SMILES": "O=C(NCCCC1CCCCC1)c1ccc(CNC(=O)c2cnn(-c3ccccc3)c2C(F)(F)F)cc1", "read-out": "cell-free assay", "method": "competition with immobilised ligand", "concentration": "0.1 µM"}
{"target": "STK11 (Homo sapiens, UniProt Q15831)", "remaining binding": "100%"}
{"target": "PIK3CA (Homo sapiens, UniProt P42336, C420R)", "remaining binding": "85%"}
{"target": "CDK16 (Homo sapiens, UniProt Q00536)", "remaining binding": "100%"}
{"target": "CSNK1A1L (Homo sapiens, UniProt Q8N752)", "remaining binding": "94%"}
{"target": "MAST1 (Homo sapiens, UniProt Q9Y2H9)", "remaining binding": "88%"}
{"target": "EGFR (Homo sapiens, UniProt P00533, G719S)", "remaining binding": "80%"}
{"target": "Ribosomal protein S6 kinase alpha-1, C-terminal kinase domain (RPS6KA1, Homo sapiens, UniProt Q15418)", "remaining binding": "100%"}
{"target": "PKMYT1 (Homo sapiens, UniProt Q99640)", "remaining binding": "77%"}
{"target": "FGR (Homo sapiens, UniProt P09769)", "remaining binding": "95%"}
{"target": "NEK10 (Homo sapiens, UniProt Q6ZWH5)", "remaining binding": "100%"}
{"target": "MAPK4 (Homo sapiens, UniProt P31152)", "remaining binding": "100%"}
{"target": "FGFR3 (Homo sapiens, UniProt P22607)", "remaining binding": "100%"}
{"target": "PAK3 (Homo sapiens, UniProt O75914)", "remaining binding": "100%"}
{"target": "STK32C (Homo sapiens, UniProt Q86UX6)", "remaining binding": "100%"}
{"target": "MYLK2 (Homo sapiens, UniProt Q9H1R3)", "remaining binding": "100%"}
{"target": "CAMK1 (Homo sapiens, UniProt Q14012)", "remaining binding": "100%"}
{"target": "TESK1 (Homo sapiens, UniProt Q15569)", "remaining binding": "100%"}
{"target": "PIK3CB (Homo sapiens, UniProt P42338)", "remaining binding": "100%"}
{"target": "FGFR1 (Homo sapiens, UniProt P11362)", "remaining binding": "100%"}
{"target": "PDPK1 (Homo sapiens, UniProt O15530)", "remaining binding": "100%"}
{"target": "COQ8A (Homo sapiens, UniProt Q8NI60)", "remaining binding": "100%"}
{"target": "Tyrosine-protein kinase ABL1, phosphorylated (ABL1, Homo sapiens, UniProt P00519)", "remaining binding": "88%"}
{"target": "STK39 (Homo sapiens, UniProt Q9UEW8)", "remaining binding": "100%"}
{"data": "Other studies, line by line"}
{"Molecule": "PhoQ, residues 284 288 289 292 302 303 STVVAA", "target": "PhoP, residues 12 14 15 18 19 LHHVQ (Escherichia coli, UniProt P23836)", "test": "Sort-seq, item: YFP reporter", "system": "E. coli", "setting": "PhoQ-PhoP variant library, together with: 10 µM Mg2+", "how to read": "baseline: high Mg2+ state, higher = stronger signaling", "endpoint": "fold induction", "result": 4.25}
{"note": "For quick reference, copied from above (set 2):"}
{"SMILES": "CCN(CC)CCNC(=O)c1c(C)[nH]c(/C=C2\\C(=O)Nc3ccc(Cl)cc32)c1C", "remaining activity [%]": 60.2}
{"SMILES": "O=C1C(Cl)=C(N2C(=O)CCC2=O)C(=O)c2ccccc21", "remaining activity [%]": 102}
{"SMILES": "Ic1cccc(CSc2nnc(-c3ccncc3)o2)c1", "remaining activity [%]": 101}
{"SMILES": "CN(C)C[C@H]1CCn2c(c(C3=C(c4cn(C)c5ccccc45)C(=O)NC3=O)c3ccccc32)C1", "remaining activity [%]": 101}
{"SMILES": "O=C(Nc1cccc(Nc2nccc(Nc3cccc(C(F)(F)F)c3)n2)c1)C1CC1", "remaining activity [%]": 100}
{"SMILES": "Cc1nc2cc3nc(-c4cccs4)cnc3cc2n1C", "remaining activity [%]": 107}
